Results of several laboratories.
A part holds a random share of what one study measured.

Set 1
Target: RNA binding protein fox-1 homolog 2, RRM domain, GST-SBP tag (RBFOX2, Homo sapiens, UniProt O43251-10, residues 100-194)
Technique: RNA Bind-n-Seq
Molecule type: RNA
Matrix: in vitro
Concentration: 365 nM
Notes: natural RNA segment, single round, ends assumed
Baseline: no-protein control
Direction: higher = stronger binding
Target sequence (chain): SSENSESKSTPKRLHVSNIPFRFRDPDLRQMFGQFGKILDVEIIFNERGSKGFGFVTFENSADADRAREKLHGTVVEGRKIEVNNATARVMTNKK
Strand	RBNS enrichment (R)
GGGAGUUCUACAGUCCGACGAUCCCACGUUGCUGUGUCGUGAGGUGCAGCGGGUCACCCUGUGGCCCGUCCUGUGACCCAUAUUUAGCCGUGUUUGGGACUCCGUGUCUUCAAUGGUUUGUUAGUUGCCAUUAUGGAAUUCUCGGGUGCCAA	0.32
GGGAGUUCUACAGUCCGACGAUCCAGUGGGGAGAUCUCAGCUCACUGCAGCCUCUGCCUCCCAAGUUCAAGCGAUUCUCCUGUCUCAGCCUCCCAGGUAGCUGGGAUUAAAGGUGCCCACCACCACACCUGGCUGGAAUUCUCGGGUGCCAA	0.389
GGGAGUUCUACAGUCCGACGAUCGAAUGUGCCUUUUUCAGAGUUGGCCAGGAGCUCCUGGCUGGGACACGGAGAGGCAGGUGUGGCGUAAGGCCUCACUCCCGGCUGGGAAGGUCUCUGAUCACACAGAAGCAUGGAAUUCUCGGGUGCCAA	9.45
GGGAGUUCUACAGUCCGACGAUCAUUCCUCACCAAGGAAGUGGCUGCAGGGACACUGGUGCCACGGCUCCUGGGCCAGCCCUUAUGUCUGAAACUGGUUGCCAACAGCCCCGAGCCAAGGCAAGGAUUUGUGUUGGAAUUCUCGGGUGCCAA	0.311
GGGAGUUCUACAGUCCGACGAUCAUCUCUAAGCCUUUUAAUAAAACUGUACUGAAGUUUUUAUCAGCUAAGAGUCAGUUCUUCAAUUCUGGUCCCAUUAUCUCCAAGUGCCUUUUUUACAGUGACAACAGACAUGGAAUUCUCGGGUGCCAA	0.589
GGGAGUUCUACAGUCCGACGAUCGGGCCAGAGUAAGUGCAAGUCAUGGAGUGCAGGCAGAGGGGUCCAUGGCUUCCCCAGCCCAGGGAGGGUAUCAGUAUCAUUCAUUCUCUCUCCCCUCACUGGUAUGGGUUUGGAAUUCUCGGGUGCCAA	0.529
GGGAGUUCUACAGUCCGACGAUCAUUCCAAAAAGACAUGGCAUUCUCCUCAUCAAACUACUUAUUUAUUUCAAAAUAAAACUACCCAUCCUCAUUCAACACUUCCAAUGGGAAAAUUCAGAGAUGAGAUCUUAUGGAAUUCUCGGGUGCCAA	0.815
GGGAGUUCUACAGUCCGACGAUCUGCCUCGCUGGCUUCCUCCUUUUCACACACUCCAAUACUUUAAUGCAUGGAACAGGUCUGCCUAUGUGUAGUGUGGGUGUCCACUUCAGCCUAGUGUAGAGGACCUCUCGUGGAAUUCUCGGGUGCCAA	2.03
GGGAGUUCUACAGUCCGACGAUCCUGUGAAACGCCAUGAUUGUCUAAACAAGUCUCCCCUCUGCCCUGAUCCCUUUGUACCAAGUCAAUGGCCACUUGAAAGUUCUGUGGACUCCCUUGUGGCCUCAACCCGUUGGAAUUCUCGGGUGCCAA	0.447
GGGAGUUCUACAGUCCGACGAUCACCGCGAGCACAUUGCAGCCCCAACGGUGGCCCAUCUUCAGCGGAGAGCGAGAACCAUUUUGGAAACUGUAAUGUAACUUAUUUUUUCCUUUAACCUCGUCAUCAUUUUCUGGAAUUCUCGGGUGCCAA	0.215
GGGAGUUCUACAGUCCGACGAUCGGCGUCGCCGGAAACCCAGGGAACCUCUCUGAAGUGACACCUCACCCCUACACACCGUCCGUUCACCCCCGUCUCUUCCUUCUGCUUUUCGGUUUUUGGAAAGGGAUCCAUGGAAUUCUCGGGUGCCAA	0.535
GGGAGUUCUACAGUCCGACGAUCCGUCCUCUGCUCUCUGCUAUGUGGUUAUUCUAAACGUCACUGGCCAGGGGACUCGCCUACUGAGAGCUGUCAUUGACUUACUGUCUAAAGCCCUGUGCUCCGUGACUCCCUGGAAUUCUCGGGUGCCAA	0.248

Set 2
Target: Histone acetyltransferase KAT6A, winged helix 2, GST fusion (KAT6A, Homo sapiens, UniProt Q92794, residues 85-181)
Technique: protein binding microarray
Molecule type: double-stranded DNA, one strand shown
Matrix: in vitro
Concentration: not given
Notes: 8-mer, flanks averaged, mean of 2 arrays, mostly near background
Baseline: not given
Direction: higher = stronger binding
Residues (chain): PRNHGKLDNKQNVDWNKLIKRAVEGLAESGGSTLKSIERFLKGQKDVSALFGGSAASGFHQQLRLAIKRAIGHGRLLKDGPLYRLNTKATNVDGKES
Strand	E-score
GGCGCCAC	0.0614
CATTGTAG	-0.0674
CCATTGAC	-0.143
GAGTAAGA	0.163
CTGGTATA	-0.153
ATTAAAAT	0.197
CGTGTTAC	-0.00644
CACGCTGA	0.0855
GGACACTA	0.0229
CCATTCCG	0.0012
CGTTTTTC	-0.0559
ATGCAAAG	0.00892
AGCGATAC	0.0122
AAGCGTAT	-0.0745
TACCCTCA	-0.0849
ATATAGTG	-0.0312
TCGCGTAA	-0.0223
GCAATAAA	0.0486
ATCTAAGG	0.0302
GCTGTGAC	0.0191
CCCAGTAA	0.029
ACAATTGA	-0.0267
ACGTGGGG	-0.0448
CCAATTAG	0.108
GTGTACGA	0.127

Set 3
Target: PABPC1L2, full length, GST fusion (mouse, UniProt A0ABA7IW68)
Technique: RNAcompete
Molecule type: RNA
Matrix: in vitro
Concentration: 20 nM
Notes: 7-mer, probes averaged, single round
Baseline: mean of 7-mers
Direction: higher = stronger binding
Target sequence (chain): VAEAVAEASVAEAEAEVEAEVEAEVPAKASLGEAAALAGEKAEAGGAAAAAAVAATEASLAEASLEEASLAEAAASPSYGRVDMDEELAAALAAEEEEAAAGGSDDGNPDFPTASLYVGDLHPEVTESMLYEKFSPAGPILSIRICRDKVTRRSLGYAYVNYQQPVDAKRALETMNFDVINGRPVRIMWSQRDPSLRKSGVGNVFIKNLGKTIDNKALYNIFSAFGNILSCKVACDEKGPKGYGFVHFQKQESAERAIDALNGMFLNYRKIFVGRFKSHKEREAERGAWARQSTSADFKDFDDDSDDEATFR
Strand	7-mer Z-score
UUCCAGC	-0.22
CGAUUCC	-0.403
ACAGGAA	0.276
GGUGAAU	-0.0138
GUUCACU	-0.331
UCCUCAC	-0.3
UCAGCGA	-0.17
GUCGGGC	-0.0627
CGUGUCA	-0.338
UGGUAUU	-0.106
GCCACAA	0.129
AAAAGAG	6.77
AUCUCGC	-0.347
UCCUGAA	-0.173
UCUCACC	-0.427
CUAUUCU	-0.302
UACCGUU	-0.202
GCGAUCG	-0.104
GGUUCGC	-0.358
CUACGAU	-0.128

Set 4
Target: Prothrombin, mature alpha-thrombin (F2, Homo sapiens, UniProt P00734)
Technique: aptamer microarray, sandwich
Molecule type: DNA with 2'F-ANA
Matrix: in vitro
Concentration: 200 nM
Notes: whole 15-mer aptamer, many near background
With: Cy3 exosite-II aptamer, 400 nM
Direction: higher = stronger binding
Strand: GGTTGGTGTGGTTGG
Modification	mean fluorescence intensity [a.u.]
2'F-ANA at 1 4 5 10 12 13	46.1
2'F-ANA at 1 3 4 6 7 8 10 12 13 15	70.9
2'F-ANA at 3 6 10 13 15	456
2'F-ANA at 1 3 5 8 10 11 13 15	51.6
2'F-ANA at 2 3 4 8 15	678
2'F-ANA at 2 5 13	54.4
2'F-ANA at 1 7 10 11 13 14 15	48.2
2'F-ANA at 2 7 15	538
2'F-ANA at 2 6 7 9 11 12 13 14	127
2'F-ANA at 1 3 4 6 7 9 11 13	105
2'F-ANA at 1 2 8 10 12 13 14	51.9
2'F-ANA at 4 10 11 13 14	60.3
2'F-ANA at 1 2 3 4 5 7 9 10 11 13 15	65.8
2'F-ANA at 2 3 4 5 6 7 10 14	47
2'F-ANA at 11 12 14	222
2'F-ANA at 2 5 6 7 8 9 11 12 13 14	63.6
2'F-ANA at 1 2 5 6 8 9 10 11	45.7
2'F-ANA at 1 4 6 7 8 11 12	230
2'F-ANA at 1 2 3 4 5 10 11 13 14 15	74.1
2'F-ANA at 5 7 9	90.6
2'F-ANA at 2 3 4 5 7 9 12 14	52.2

Set 5
Target: Interferon regulatory factor 7, full length, phosphomimetic (IRF7, Homo sapiens, UniProt Q92985, residues 1-503, S471D/S472D/S475D/S476D/S477D/S483D/S484D/S487D)
Sequence of UniProt Q92985 (whole entry, unmodified, looked up): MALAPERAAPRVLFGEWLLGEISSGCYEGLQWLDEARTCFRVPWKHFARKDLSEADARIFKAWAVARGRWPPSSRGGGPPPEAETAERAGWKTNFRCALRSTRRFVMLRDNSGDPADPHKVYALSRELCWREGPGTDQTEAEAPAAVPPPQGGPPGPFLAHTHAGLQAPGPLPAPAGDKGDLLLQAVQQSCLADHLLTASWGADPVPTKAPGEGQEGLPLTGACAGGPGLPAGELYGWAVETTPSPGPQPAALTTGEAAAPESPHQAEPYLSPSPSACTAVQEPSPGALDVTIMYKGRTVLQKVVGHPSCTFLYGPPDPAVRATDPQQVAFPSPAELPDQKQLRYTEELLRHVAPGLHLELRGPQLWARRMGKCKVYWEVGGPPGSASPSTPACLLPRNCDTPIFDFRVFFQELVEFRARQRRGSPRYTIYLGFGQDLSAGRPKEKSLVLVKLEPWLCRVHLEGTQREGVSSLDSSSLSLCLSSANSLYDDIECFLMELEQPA
Technique: protein-binding microarray
Molecule type: double-stranded DNA, one strand shown
Matrix: in vitro
Concentration: 2200 nM top
Notes: 60-bp whole probe
With: salmon DNA 0.4 mg/ml
Baseline: random background probes
Direction: higher = stronger binding
All sequences stand within: GCCTAGCAC … GTCTTGATTCGCTTGACGCTGCTG
Strand	fitted relative affinity [z-score]
TCATATTTAAGACCTATGACTGTGCTA	0.202
GACCGTCTCCTTCTCCTGACGTGCTAG	1.44
TTAGGACTGGCGTATCGGTTAGTGCTA	-0.757
TCAGTTCTTTTTTTCAAACTGTGCTAG	1.42
ATGGAAATGCACCCCACGCTGTGCTAG	0.502
GATGATCTCAGTTTCGAGACGTGCTAG	3.76
TTATGACTGGGACTGGGTTAGTGCTAG	-0.435
GATTTTTTTCATATATATATGTGCTAG	1.05
GATGGACTGGACACTGGGGACGTGCTA	-0.618
TTGGGTCTGGGTATTTTTCTGTGCTAG	0.00274
ATAGTGATAGCTCTGGTAAAGTGCTAG	-0.492
TTAGGACTGGGGATTGGGTTAGTGCTA	-0.532
GACGATATCCGTATCGAGACGTGCTAG	1.28
GACGATTTCGGGACTGCAGACGTGCTA	1.43
GACGGGCTGGGTATCGGGACGTGCTAG	-1.21
TTATGTCTCGGTTTCGGTTAGTGCTAG	7.25
AGTTTTTACTTTCTGAATGCGTGCTAG	5.19

A few entries again (set 3):
Strand	7-mer Z-score
GGUGAAU	-0.0138
GUUCACU	-0.331
UCCUCAC	-0.3
UCAGCGA	-0.17
GUCGGGC	-0.0627
